Published values collected from several papers.
Numbered parts are unrelated; each lists some results of a single study.

Series 1
Target: Interferon regulatory factor 7, full length, phosphomimetic (IRF7, Homo sapiens, UniProt Q92985, residues 1-503, S101K/S471D/S472D/S475D/S476D/S477D/S483D/S484D/S487D)
UniProt Q92985, sequence (whole entry, unmodified, looked up): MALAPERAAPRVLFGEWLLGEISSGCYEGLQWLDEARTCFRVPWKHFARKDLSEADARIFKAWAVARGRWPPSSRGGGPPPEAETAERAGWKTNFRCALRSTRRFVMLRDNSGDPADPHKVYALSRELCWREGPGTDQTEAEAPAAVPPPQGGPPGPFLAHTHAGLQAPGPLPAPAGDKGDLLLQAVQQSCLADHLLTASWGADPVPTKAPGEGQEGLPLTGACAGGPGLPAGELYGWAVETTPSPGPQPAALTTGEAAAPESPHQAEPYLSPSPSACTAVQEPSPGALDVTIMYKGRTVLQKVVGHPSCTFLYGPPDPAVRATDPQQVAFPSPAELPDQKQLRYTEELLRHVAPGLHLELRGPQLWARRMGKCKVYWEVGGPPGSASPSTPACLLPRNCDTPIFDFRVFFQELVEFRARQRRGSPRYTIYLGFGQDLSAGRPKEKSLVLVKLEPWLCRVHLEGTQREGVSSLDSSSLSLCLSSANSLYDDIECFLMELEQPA
Technique: protein-binding microarray
Form: double-stranded DNA, one strand shown
Medium: in vitro
Concentration: 250 nM
Notes: 60-bp whole probe
Added: salmon DNA 0.4 mg/ml
Reference: random background probes
Direction: higher = stronger binding
All sequences stand within: GCCTAGCAC … GTCTTGATTCGCTTGACGCTGCTG
| Strand | log fluorescence |
| --- | --- |
| GACGAACTGAGTTTGGAGACGTGCTAG | -0.476 z-score |
| GACGAACTGAGTTTCGAGATGTGCTAG | 4.82 z-score |
| TCACCTCTGCTGCTGGCACTGTGCTAG | -0.473 z-score |
| TTCGGACTGGGGACTGGGTTAGTGCTA | -0.218 z-score |
| TTAGAACTGGGGTTTCGATCAGTGCTA | 1.64 z-score |
| GACGGTTTCTGTTCCGGGACGTGCTAG | 6.45 z-score |
| TCATCACTTTCTTTAACACTGTGCTAG | 0.675 z-score |
| GCCGATATCAGTCTCGAGACGTGCTAG | 0.601 z-score |
| ACAAAGATTTTTATCAAATGGTGCTAG | 0.414 z-score |
| GACGAACTGGGGGCTGGAGACGTGCTA | 0.234 z-score |
| TTAGGTATCTGACTGGGTTAGTGCTAG | -0.389 z-score |
| TTAGATCTCAGTATCGAGTAGTGCTAG | 0.144 z-score |
| GACGATTTCATTTTCGAGACGTGCTAG | 1.5 z-score |
| TCAGTTTTAGGTCCCTTACTGTGCTAG | 0.645 z-score |
| CAGCATCTGCAACATCTACAAGTGCTA | -0.589 z-score |
| TTAGGTATCGGTCGCGGTTAGTGCTAG | 0.503 z-score |
| GACGGTTTCCGTTTCCTGACGTGCTAG | 8.99 z-score |

Series 2
Target: Prothrombin, mature alpha-thrombin (F2, Homo sapiens, UniProt P00734)
Technique: aptamer microarray, sandwich
Form: DNA with 2'F-ANA
Medium: in vitro
Concentration: 200 nM
Notes: whole 15-mer aptamer, many near background
Added: Cy3 exosite-II aptamer, 400 nM
Direction: higher = stronger binding
Strand: GGTTGGTGTGGTTGG
| Modification | mean fluorescence intensity |
| --- | --- |
| 2'F-ANA at 1 4 8 9 14 | 49.4 a.u. |
| 2'F-ANA at 1 2 6 8 9 10 11 12 14 | 45.5 a.u. |
| 2'F-ANA at 1 2 7 11 15 | 151 a.u. |
| 2'F-ANA at 1 4 7 8 9 11 15 | 139 a.u. |
| 2'F-ANA at 1 2 4 6 9 10 12 15 | 56.9 a.u. |
| 2'F-ANA at 1 2 4 5 9 11 13 | 56.8 a.u. |
| 2'F-ANA at 2 3 4 5 7 9 11 | 75.8 a.u. |
| 2'F-ANA at 1 5 6 7 9 10 13 14 15 | 55.4 a.u. |
| 2'F-ANA at 1 5 6 7 8 9 11 | 63.3 a.u. |
| 2'F-ANA at 3 4 6 8 10 12 14 15 | 160 a.u. |
| 2'F-ANA at 2 7 8 12 13 | 658 a.u. |
| 2'F-ANA at 2 3 4 5 7 8 9 10 12 14 15 | 51.9 a.u. |
| 2'F-ANA at 2 3 4 8 9 11 14 | 361 a.u. |
| 2'F-ANA at 3 4 5 6 8 11 12 14 15 | 54.7 a.u. |
| 2'F-ANA at 2 3 5 6 7 8 9 10 12 14 15 | 52.2 a.u. |
| 2'F-ANA at 1 2 3 4 5 6 7 9 12 14 15 | 46.6 a.u. |
| 2'F-ANA at 1 2 3 7 10 13 14 | 52.2 a.u. |
| 2'F-ANA at 2 6 7 8 9 10 11 13 14 | 74.6 a.u. |
| 2'F-ANA at 2 3 5 6 10 13 | 47.8 a.u. |
| 2'F-ANA at 4 11 14 15 | 92.8 a.u. |
| 2'F-ANA at 3 6 7 8 9 10 11 14 | 432 a.u. |
| 2'F-ANA at 2 3 4 6 7 11 15 | 493 a.u. |
| 2'F-ANA at 1 2 5 6 9 12 14 15 | 159 a.u. |
| 2'F-ANA at 3 4 6 7 8 | 789 a.u. |
| 2'F-ANA at 6 7 8 9 11 13 | 408 a.u. |

Series 3
Target: Histone acetyltransferase KAT6A, winged helix 1, GST fusion (KAT6A, Homo sapiens, UniProt Q92794, residues 1-85)
Technique: protein binding microarray
Form: double-stranded DNA, one strand shown
Medium: in vitro
Concentration: not given
Notes: 8-mer, flanks averaged, mean of 2 arrays, mostly near background
Reference: not given
Direction: higher = stronger binding
Target sequence (chain): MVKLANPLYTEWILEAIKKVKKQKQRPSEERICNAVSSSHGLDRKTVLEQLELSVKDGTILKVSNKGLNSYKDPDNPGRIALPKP
| Strand | E-score |
| --- | --- |
| CCGGCCAG | 0.264 |
| CGATTGCG | 0.277 |
| ACGTGTTG | -0.113 |
| AGATATCT | -0.329 |
| GTGTAGGA | -0.207 |
| GCCAATAC | 0.0604 |
| CGAAATCC | -0.046 |
| CTTCTCCC | -0.143 |
| ATCCCACA | -0.27 |
| TAGATCCA | -0.117 |
| ACGCACTC | 0.146 |
| CGGGATGC | 0.282 |
| CCCTCTCC | -0.107 |
| AATAAGAT | -0.131 |
| AGGATGAA | -0.172 |
| AGCATTAT | -0.098 |

Series 4
Target: Sox, HMG box (Pigoraptor chileana)
Technique: Spec-seq
Form: double-stranded DNA, one strand shown
Medium: in vitro
Concentration: not given
Notes: whole probe, mean of replicates
Reference: not given
Direction: lower = stronger binding
All sequences stand within: GAGTCGTCTCGTCAGCAC … CCGTAGAGCACTCAGGTC
Target sequence (chain): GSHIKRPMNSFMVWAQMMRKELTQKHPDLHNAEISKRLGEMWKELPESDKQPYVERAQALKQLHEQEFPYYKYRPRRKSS
| Strand | relative binding energy [ln ratio] |
| --- | --- |
| CGTAGTT | 0.662 |
| CATATAA | -0.334 |
| CGTGGTT | 1.07 |
| TCTGGTT | 0.604 |
| ACTCGTT | 0.206 |
| CATAAGA | -0.367 |
| CATTGGG | -0.0438 |
| ATTGGTT | 0.0186 |
| AAGGGTT | -0.942 |
| CATAACT | -0.152 |
| GCAAGTT | 0.926 |
| TGAGGTT | 0.832 |
| ACCTGTT | -0.705 |
| CATTTGC | 0.657 |
| CATTTGA | 0.437 |
| TACTGTT | -1.85 |
| CATTACC | 0.451 |
| CATGTAT | 0.376 |
| CATCTGT | -0.671 |
| GCCCGTT | 1.05 |
| CATGTGA | 0.741 |
| CACTGTT | -1.69 |
| CATCAGA | 0.341 |
| CATTGGT | 0.164 |

Series 5
Target: TAR DNA-binding protein 43, full length, His tag (TARDBP, Homo sapiens, UniProt Q13148, residues 1-414)
Technique: RNA Bind-n-Seq
Form: RNA
Medium: in vitro
Concentration: 20 nM
Notes: 6-mer, flanks averaged, single round
Added: 150 mM LiCl
Reference: input library
Direction: higher = stronger binding
| Strand | 6-mer enrichment (R) |
| --- | --- |
| ACCGGU | 0.882 |
| UCACAA | 0.834 |
| AAGAGC | 0.903 |
| CAACAC | 0.833 |
| UCCAUG | 0.913 |
| CCAAUA | 0.92 |
| UAAUCA | 0.864 |
| ACGACA | 0.787 |
| AAUUAA | 0.948 |
| AGGGAU | 1 |
| GCGACG | 0.942 |
| AGCGAG | 1.04 |
| UGAAUC | 0.873 |
| GAACCA | 0.873 |
| AGCCAG | 0.913 |
| CUCGCG | 0.857 |
| GGCGAG | 1.15 |
| UGGAAA | 0.942 |
| UGUUGG | 1.3 |
| AACAUU | 0.891 |
| GCGUGU | 1.55 |
| GAGCGG | 1.15 |
| CGCCGC | 0.958 |

Series 6
Target: Fragile X messenger ribonucleoprotein 1, C-terminal low-complexity region (Fmr1, Mus musculus, UniProt P35922)
Technique: RNA Bind-n-Seq
Form: RNA
Medium: in vitro
Concentration: 200 nM
Notes: whole 134-nt RNA, ends assumed
Added: 150 mM KCl
Reference: input library
Direction: higher = stronger binding
All sequences stand within: GGGAGUUCUACAGUCCGACGAUC … UGGAAUUCUCGGGUGUCAAGG
| Strand | log2 enrichment |
| --- | --- |
| UCCUGUGCUACACAUCGUAUGUACCGAAUCAAAUUUUUUUAAAUUUAAACCCCCCCAAAAAAGUAUUAUGUUACGCCGUUCGGAUCUGCA | 0.235 |
| CACAGACAACACGCACCCACACAGACACAGAGUGAAGGGGUUGGGAUGGGGACAGGGUGCACAGCAGGGCGGGGUAGGACCCCAGCCCCU | 1.26 |
| AGAGAAUAAGAAUUCAGCUGACAGGAGGCCUCUAUCCUGUCCCUCCACCCCACCCUCCACCUCAAUCCCCUCCCAUCUUCCCCAGACCUA | 0.592 |
| AAGUCCUGUGCUACACAUCGUAUGUACCGAAUCGGGAAAGGGUUUGGGUUUUUGGGAAAGUAUUAUGUUACGCCGUUCGGAUCUGCACUU | 0.455 |
| UCCUGUGCUACACAUCGUAUGUACCGAAUCGGGGCCCCCGGGGCCCCCGGGGCCCCCGGAAAGUAUUAUGUUACGCCGUUCGGAUCUGCA | -0.0567 |
| CACAGACAACACGCACCCACACAGACACAGAGGGAAGGGGUUGGGAUGGGGACAGGGUGCACAGCUGGGCGGGGUAGGACCCCAGCCCCU | 1.34 |
| UUCUGAGAAGGUUGCGCAGCAGCUGUGCCCGGCAGUCUAGAGGCGCAGAAGAGGAAGCCAUCGCCUGGCCCCGGCUCUCUGGACCUUGUC | -0.968 |
| AGUCCUGUGCUACACAUCGUAUGUACCGAAUCGGGGCCCCGGGGCCCCGGGCCCCGGGAAAGUAUUAUGUUACGCCGUUCGGAUCUGCAC | -1.59 |
| AAGUCCUGUGCUACACAUCGUAUGUACCGAAUCGGGCCCCGGGCCCCGGCCCCGGGAAAGUAUUAUGUUACGCCGUUCGGAUCUGCACUU | -0.932 |
| UUGAAAGAAUUUGCCAACUUUGACUUUGAUGUCUGGAGGAAAAAGUAUAUGCGUUGGAUGAAUCACAAAAAGUCUCGAGUGAUGGAUUUC | -1.73 |
| UGGGAGGUGGAUUUUGUUUAUUUUUUUAGCUCAUUUCCAGGGGUGGGAAUUUUUUUUUAAUAUGUGUCAUGAAUAAAGUUCUUUUUGAAA | 0.253 |
| CAGUUUAAGAGGGGUUUCAUGCAAGGGCAUGUAAAUAGACAAGAAAAAGAAGAAAAAGAAGCAAUAUAUAAAGAACGUUGGCCAGAUUAU | -0.0265 |
| GUCCUGUGCUACACAUCGUAUGUACCGAAUCGGGGUUUUUUUGGGGAAAGGGGAGGGGAAAGUAUUAUGUUACGCCGUUCGGAUCUGCAC | 0.594 |
| AAGUCCUGUGCUACACAUCGUAUGUACCGAAUCGGGCCCCGGCCCCGGGGCCCCGGGAAAGUAUUAUGUUACGCCGUUCGGAUCUGCACU | -1.65 |

Excerpt of the above (series 3):
| Strand | E-score |
| --- | --- |
| CGATTGCG | 0.277 |
| ACGTGTTG | -0.113 |
| AGATATCT | -0.329 |
| GTGTAGGA | -0.207 |
| GCCAATAC | 0.0604 |
| CGAAATCC | -0.046 |
| CTTCTCCC | -0.143 |
| ATCCCACA | -0.27 |
| TAGATCCA | -0.117 |
| ACGCACTC | 0.146 |
